# Assay results collected from several papers.
# Compare with care: the assays were run in different laboratories. Several values in a cell are separate wells, animals, samples, runs or records. ± marks the error that the study gave.
# PAL1: PAL1 (Petroselinum crispum, UniProt P24481)
# Oprd1: Delta-type opioid receptor (Oprd1, Rattus norvegicus, UniProt P33533)
Compound,target,test,system,setting,how to read,measurement,result
CON(C(=O)c1cn(C)nc1C(F)F)C(C)Cc1c(Cl)cc(Cl)cc1Cl (stereo not drawn),"SDHD/SDHC/SDHB (Sus scrofa, UniProt A5GZW8+D0VWV4+Q007T0)","enzyme activity, inhibitor, DCIP reduction",pig,"0.1 µM, added: DCIP 10 µM",,reaction velocity,0.004 µM/s and 0.00434 µM/s
CC12CCC(=O)C=C1CCC1C2C=C(c2cccnc2)C2(C)C(=O)CCC12 (stereo not drawn),"7-alpha-hydroxycholest-4-en-3-one 12-alpha-hydroxylase (Homo sapiens, UniProt Q9UNU6)",inhibitor,,"80 µM, added: 7α-hydroxycholest-4-en-3-one 0.5 µM",,remaining activity,105 ± 6%
CC[C@H](C)[C@@H]1NC(=O)[C@H](CC(N)=O)NC(=O)[C@@H]2CCCN2C(=O)[C@@H](NC(=O)[C@H](CC(N)=O)NC(=O)[C@@H](N)CCC(N)=O)COC(=O)[C@H](CCSC)NC(=O)[C@H](Cc2c[nH]c3ccccc23)NC(=O)CN(CCC(N)=O)C(=O)CNC(=O)[C@H](Cc2ccccc2)NC1=O,"Fsr quorum sensing protein (Enterococcus faecalis, UniProt A0ACD6TCR9)",cell-based activity,,concentration not given,,activity,inactive
O=C(CF)N[C@H]1[C@H]([C@H](O)[C@H](O)CNC(=O)c2ccc(Oc3ccccc3)cc2)O[C@@](OCc2cccc(Cl)c2Cl)(C(=O)O)C[C@@H]1O,"B-cell receptor CD22 (CD22, Homo sapiens, UniProt P20273)",isothermal titration calorimetry,,,,-TΔS,0.33 ± 0.07 kcal/mol
CC[C@H](C)[C@@H]1NC(=O)[C@H](CC(C)C)NC(=O)CNC(=O)[C@H](CCCNC(=N)N)NC(=O)[C@H](Cc2c[nH]c3ccccc23)NC(=O)[C@H](CCSC)NC(=O)[C@H](CO)NC(=O)[C@H](CCC(=O)O)NC(=O)[C@H](Cc2ccccc2)NC(=O)[C@H](CC(=O)O)NC(=O)[C@H]([C@@H](C)O)NC(=O)CNC(=O)[C@H](CCC(=O)O)NC(=O)[C@H]([C@@H](C)O)NC(=O)CNC(=O)[C@H](CC(=O)O)NC1=O,"E3 ubiquitin-protein ligase Mdm2 (MDM2, Homo sapiens, UniProt Q00987)","MDM2-ligand binding, inhibitor, AlphaLISA competition",,"1.562 µM, added: GST-tagged MDM2 ligand",lower = stronger inhibition,AlphaLISA signal,3520 a.u. and 3130 a.u. and 3410 a.u.
O=C1NC(=O)c2c1c1cc(F)c[n+]3c1c1c2c2cc(O)ccc2[n]1[Ru-4]312([N]=C=S)[S+]3CC[S+]1CC[S+]2CC3 (stereo not drawn),"cGMP-dependent protein kinase 1, isoform beta (PRKG1, Homo sapiens, UniProt Q13976)",enzyme activity,,"100 nM, human enzyme, added: 10 µM ATP",relative to: untreated,remaining activity,8%
N[C@H](Cc1ccccc1)P(=O)(O)O,PAL1,"L-Phe deamination, inhibitor, UV steady-state kinetics",,"1000 µM, added: L-Phe 5 mM",,reaction rate reduction,55%
CN(C)[C@H]1C[C@@]23CC[C@@]4(O2)C(=CC[C@]2(C)[C@@H](c5ccc6ccncc6c5)CC[C@H]24)C=C3[C@@H](O)[C@@H]1O,"Serine-protein kinase ATM (ATM, Homo sapiens, UniProt Q13315)","ATP probe labelling, inhibitor, KiNativ profiling",,1 µM,,inhibition,-16.8%
CS(C)(=O)=Nc1ccc(-c2ccc(-c3nc4cc(O[C@@H]5CO[C@H]6[C@@H]5OC[C@H]6O)[nH]c4cc3F)cc2)cc1,"Serine/threonine-protein kinase Sgk1 (SGK1, Homo sapiens, UniProt O00141)","enzyme activity, inhibitor",,10 µM,,inhibition,-16%
Cc1ccc(NC(=O)CCc2cccc(NC3=CC(=O)N(C4CCC(=O)NC4=O)C3=O)c2)cc1Cl (stereo not drawn),"E3 ubiquitin-protein ligase ZFP91/CRBN (Homo sapiens, UniProt Q96JP5+Q96SW2)","degrader, quantitative proteomics, item: protein abundance",Jurkat,"1 µM, 4 h",relative to: DMSO,log2 fold change,-0.387
C=CC(=O)Nc1cc(-c2ccc(C(=O)N3CCCC(O)(CC)C3)cc2)ccc1F (stereo not drawn),"DNA dC->dU-editing enzyme APOBEC-3B, C-terminal domain (Homo sapiens, UniProt Q9UH17)","covalent adduct, intact protein MS",,"5 h, 10-fold excess, 250 µM",,adducted protein,64%
CC(C)C[C@@H](N)C(=O)NCC(=O)N[C@H](C)C(=O)N[C@H](CO)C(=O)N[C@H](Cc1c[nH]c2ccccc12)C(=O)N[C@H](Cc1c[nH]cn1)C(=O)N[C@H](CCCNC(=N)N)C(=O)N1CCC[C@@H]1C(=O)N[C@H](CC(=O)O)C(=O)N[C@H](CCCCN)C(=O)N[C@H](CCCCN)C(=O)N[C@H](CCCNC(=N)N)C(=O)NCCCCCC(=O)N[C@@H](CCCCN)C(=O)N[C@@H](CCCNC(=N)N)C(=O)N[C@@H](CCCCN)C(=O)N[C@@H](CCC(N)=O)C(=O)N[C@@H](CCCNC(=N)N)C(=O)NCC(=O)N1CCC[C@H]1C(=O)NCC(=O)N[C@@H](CCCNC(=N)N)C(=O)N[C@@H](C)C(=O)N[C@@H](Cc1ccccc1)C(N)=O,"C-C chemokine receptor type 5 (CCR5, Homo sapiens, UniProt P51681)",,CHO expressing CCR5,"50 µM, 40 min, 4 °C, added: mAb 45523 4 µg/mL",,inhibition of binding,17.2%
C[C@@H](O)[C@@H]1CN([C@H](Cc2ccc3ccccc3c2)CN2CCC[C@H]2CN2CCNC[C@@H]2Cc2ccc3ccccc3c2)CCN1CCCC1CCCC1,Oprd1,radioligand binding,rat brain membranes,"500 nM, pH 7.5, 25 °C, added: 2 nM [3H]DPDPE",,remaining binding,84.8%
N[C@H](C(=O)N1CCCC1)C1CCN(c2nccc3c(-c4ncc(Cl)cc4Cl)cccc23)CC1,"Protein-arginine deiminase type-4 (PADI4, Homo sapiens, UniProt Q9UM07)",enzyme activity,,"0.0983 µM, high-affinity site, added: Ca2+ 1.5 mM",,kcat,1.86 s⁻¹ and 1.78 s⁻¹
CN(C)CCCSC(=S)N1CCN(C(=O)/C=C/c2coc3ccccc3c2=O)CC1,"Nucleoprotein (N, Tomato spotted wilt virus, UniProt P25999, Y184A)","binding, microscale thermophoresis",,3.906 µM,dose series,MST response,838 a.u.
CC(C)CC(O)(CC(C)C)c1cn(C(=O)N2CCCC2)nn1,"Acyl-coenzyme A thioesterase 2, mitochondrial (Acot2, Mus musculus, UniProt Q9QYR9)","probe labelling, inhibitor, item: Acot2","mouse, brain","i.p., 0.8 mg/kg, 4 h, protein level","relative to: treated over vehicle mice, lower = stronger inhibition",activity ratio-of-ratios,1.5
CCCC[C@H]1CNCCN1C[C@@H]1CCCN1C[C@H](CC1CCCCC1)N1CCN(CCC23CC4CC(CC(C4)C2)C3)[C@H]([C@@H](C)O)C1,Oprd1,radioligand binding,rat brain membranes,"500 nM, pH 7.5, 25 °C, added: 2 nM [3H]DPDPE",,remaining binding,84.2%
C#CCCCCOc1ccc2c(c1)CCCN2C(=O)CCl,"Serine/threonine-protein kinase MRCK beta (CDC42BPB, Homo sapiens, UniProt Q9Y5S2)",mass spectrometry profiling,H460 cell lysate,"100 µM over 10 µM, UniProt Q9Y5S2",relative to: high over low concentration,reactivity ratio,1.52
Cc1nc2ccc(S(=O)(=O)n3nc(CCCc4ccc(Cl)cc4)nc3N)cc2s1,"Lysophospholipase-like protein 1 (Mus musculus, UniProt Q3UFF7)","enzyme activity, activator, gel-based ABPP",purified protein,"concentration not given, added: FP-rhodamine",relative to: DMSO,probe labeling increase,1 fold
C[C@@H](O)[C@@H]1CN([C@H](Cc2ccc3ccccc3c2)CN2CCC[C@H]2CN2CCNC[C@@H]2CO)CCN1CCc1ccc(Cl)c(Cl)c1,Oprd1,radioligand binding,rat brain membranes,"500 nM, pH 7.5, 25 °C, added: 2 nM [3H]DPDPE",,remaining binding,91.5%
CC(C)[C@H]1NC(=O)C[C@H]2/C=C/CCSSC[C@@H](NC1=O)C(=O)N[C@H](Cc1cccc3ccccc13)C(=O)NCC(=O)O2,"Inhibitor of nuclear factor kappa-B kinase subunit epsilon (IKBKE, Homo sapiens, UniProt Q14164)","enzyme activity, inhibitor",,10 µM,,inhibition,5.2%
CC(=O)N[C@@H](CC(=O)O)C(=O)N[C@@H](CCC(=O)O)C(=O)N[C@H](C(=O)N[C@@H](CC(=O)O)C(=O)Nc1ccc2c(C)cc(=O)oc2c1)C(C)C,"Cholinesterase (BCHE, Homo sapiens, UniProt P06276)",,,"concentration not given, Triton",,efficacy,-79.7 ± 8.64%
O=C(N[C@@H]1c2ccccc2C[C@H]1N1CCCC1)c1ccc(-c2ccnc3[nH]ccc23)nc1,"cGMP-dependent protein kinase 1 (PRKG1, Homo sapiens, UniProt Q13976)","binding, competition with immobilised ligand",,3 µM,,remaining binding,3.1%
C=C(c1ccccc1)[C@@H](N)P(=O)(O)O,PAL1,"L-Phe deamination, inhibitor, UV steady-state kinetics",,"50 µM, added: L-Phe 1 mM",,reaction rate reduction,2%
COCC1CCCCN1C(=O)n1cc(C(O)(c2ccccc2)c2ccccc2)nn1 (stereo not drawn),"Palmitoyl-protein thioesterase ABHD10, mitochondrial (Mus musculus, UniProt Q6PE15)","probe labelling, inhibitor, competitive ABPP-SILAC, item: Abhd10",mouse T cells,"concentration not given, 4 h, single peptide","relative to: treated over DMSO cells, lower = stronger inhibition",SILAC activity ratio,1.22 and 1.23 and 1.48 and 1.46 and 1.35 and 1.25
CC[C@H](C)[C@H](NC(C)=O)C(=O)N[C@@H](CCC(=O)O)C(=O)N1CCC[C@H]1C(=O)NC(CS(=O)(=O)O)P(=O)(Oc1ccccc1)c1ccccc1 (stereo partly drawn),"Granzyme B (GZMB, Homo sapiens, UniProt P10144)","enzyme activity, inhibitor, FRET",,,,kinact,0.00105 s⁻¹
COc1c(N2CC3CCCNC3C2)c(F)cc2c(=O)c(C(=O)OCc3ccc([N+](=O)[O-])cc3)cn(C3CC3)c12 (stereo not drawn),"Oxygen-insensitive NAD(P)H nitroreductase (nfsB, Escherichia coli K-12, UniProt P38489)",substrate,,added: NADH 100 µM,,kcat,0.167 s⁻¹
